Results gathered from unrelated publications.
Compare with care: the assays were run in different laboratories. Values joined by “and” are separate records of one study, mostly repeats; a detail may differ.

SMILES | assay | system | conditions | scale | endpoint | result
CC(C)(C)C(=O)Nc1ccc2[nH]c(CN3CCC(N(CCCN4CCOCC4)CC4OC(n5cnc6c(N)ncnc65)C(O)C4O)CC3)nc2c1 (stereo not drawn) | – | Sprague-Dawley rats | intraperitoneal, 20 mg/kg, 6 h, LLOQ 10 ng/mL | – | plasma concentration | not detected
Cc1noc(C)c1Cn1cc(N2C(=O)CN(Cc3cccc(OS(=O)(=O)O)c3)C2=O)cn1 | – | Sprague-Dawley rat, male | oral, 30 mg/kg of parent drug, 12 h | – | plasma concentration | 667 ng/mL
CNc1cc(N)c(C(N)=O)cn1 | – | Han Wistar rats, male, plasma | oral, 30 mg/kg, 1.00 h | – | plasma concentration | 28.4 µM
CC[C@H](C)[C@H](NC(=O)[C@H](Cc1ccc(O)cc1)NC(=O)[C@@H](NC(=O)[C@H](CCCNC(=N)N)NC(=O)[C@@H](N)CC(=O)O)C(C)C)C(=O)N[C@@H](Cc1c[nH]cn1)C(=O)N1CCC[C@H]1C(=O)O | LC-MS/MS | Sprague-Dawley rat, both sexes, plasma | subcutaneous, 10 mg/kg/day, day 27, 1.5 h, 90 min | – | plasma concentration | 5.18 ng/mL
Cc1noc(C)c1Cn1cc(N2C(=O)CN(Cc3cccc(O[C@@H]4O[C@H](C(=O)O)[C@@H](O)[C@H](O)[C@H]4O)c3)C2=O)cn1 | – | Sprague-Dawley rat, male | oral, 10 mg/kg of parent drug, 0.5 h | – | plasma concentration | 2290 ng/mL
COc1ccc(C(N)=O)cn1 | – | Han Wistar rats, male, plasma | oral, 30 mg/kg, 1.00 h | – | plasma concentration | 80.4 µM
Cc1cc(C(=O)NC(C)(C)CO)cc(C)n1 | LC-MS metabolite profiling | Sprague-Dawley rat, both sexes, plasma | oral, 100 mg/kg of parent drug, 2 (unit not given) | higher = more metabolite | plasma peak area | 163000 a.u.
O=C(NS(=O)(=O)c1cccs1)c1cc2ccccc2n1Cc1ccc(Br)c2ccccc12 | – | Sprague-Dawley rat, male, plasma | oral, 20 mL/kg, 0.5 h | – | plasma concentration | 4210 ng/mL
CNC(=O)C1CCCN(C(=O)C2CC3CCC2N3C(=O)[C@@H]2C[C@@H](O)CN2C(=O)NCc2cccc(Cl)c2F)C1 (mixture of isomers) | – | Sprague-Dawley rat, plasma | intravenous, 2.5 mg/kg, 15 min | – | plasma concentration | 576 ng/mL
Cc1cc(C(=O)NC(C)(C)C(=O)O)cc(C)n1 | LC-MS metabolite profiling | Sprague-Dawley rat, both sexes, plasma | oral, 100 mg/kg of parent drug, 1 (unit not given) | higher = more metabolite | plasma peak area | 31500 a.u.
CCCN(C)c1cc(C(F)(F)F)nc(SCCC(=O)NCc2ccco2)n1 | – | Wistar rat, plasma | intraperitoneal, 25 mg/kg, 2 h post-dose | reference: vehicle control | plasma ALT | no effect
CNc1cc(N)c(C(N)=O)c[n+]1C | substrate, item: methylated product | rats, plasma | oral, 30 mg/kg, 3.00 h | – | plasma concentration of product | 0.201 µM and 0.264 µM

For quick reference, copied from above:
SMILES | assay | system | conditions | scale | endpoint | result
Cc1noc(C)c1Cn1cc(N2C(=O)CN(Cc3cccc(OS(=O)(=O)O)c3)C2=O)cn1 | – | Sprague-Dawley rat, male | oral, 30 mg/kg of parent drug, 12 h | – | plasma concentration | 667 ng/mL
